Results collected from several papers.
Protocols differ between the studies behind these lines. ± gives the spread as reported.

SMILES | test | system | conditions | how to read | quantity | result
C[C@H]1Oc2cc(cnc2N)-c2c(nn(C)c2C#N)CN(C)C(=O)c2ccc(F)cc21 | – | patients, plasma | oral, dose not given, cycle 2 day 1, added: avelumab | – | dose-normalised Cmax, mean | 6 ng/mL/mg
CCO[C@H]1CCN(Cc2c(OC)cc(C)c3[nH]ccc23)[C@H](c2ccc(C(=O)O)cc2)C1 | – | human severe hepatic impairment, plasma | oral, 200 mg single dose, median | – | total Tmax | 3 h
CC(C)(C(=O)N1CCOc2c(C#N)cncc2C1)C(F)F | item: Palpitations | human | oral, 20 mg once daily, 14 days, multiple ascending dose | – | subjects with adverse event | 12.5%
CNCc1ccc(-c2[nH]c3cc(F)cc4c3c2CCNC4=O)cc1 | – | patients | oral, 480 mg twice daily, all grades | – | decreased appetite incidence | 11.1%
CC1(CNC(=O)[C@H](CN)NC(=O)c2ccc(-c3ccccc3)cc2)NC(=O)NC1=O (stereo partly drawn) | – | octanol/buffer | pH 11 | – | logP | -0.23
CN(C(=O)n1cnc(-c2cccnc2)c1)[C@H]1CC[C@H](O)CC1 | – | Wistar rat, medulla oblongata | oral, 10 mg/kg of BIA 10-2474, 24 h, single dose | – | concentration | 14.3 ± 0.9 ng/g
COc1ccc2c(c1)sc(-c1ccc(N(C)C)cc1)[n+]2C | – | PBS | free dye | – | emission maximum wavelength | 484 nm
C[C@@H]1Cc2c([nH]c3ccccc23)[C@@H](c2c(F)cc(NC3CN(CCCF)C3)cc2F)N1CC(F)(F)CO | – | mouse, non-tumour-bearing, brain | oral, dose not given, 7 days daily, added: fulvestrant s.c. | – | total brain concentration | 88 nmol/L
N#Cc1ccc2c(c1)[C@H]1CCCN(C(=O)c3ccc4[nH]cnc4c3)[C@H]1C2 | – | human | 240 mg, end of trial | relative to: baseline | cortisol level change | -116 nmol/L
CCN1/C(=C/C(C)=O)Sc2ccc(F)cc21 | – | cynomolgus monkey | oral, 30 mg/kg, 24 h post-dose | relative to: pre-dose | mean blood pressure change | 98.6 ± 3.2%
COc1cc([N+](=O)[O-])ccc1NC(=O)CN1CCOCC1 | – | octanol/buffer | pH 11 | – | logP | 2
Cc1ccc(C)c(OCCCC(C)(C)C(=O)O)c1 | – | human, plasma | oral, dose not given, day 11 predose, mean | – | trough plasma concentration | 1700 ng/mL
COc1ncc(-c2nc3c(n2C(C)C)[C@H](c2ccc(Cl)cc2)N(c2cc(Cl)cn(C)c2=O)C3=O)c(OC)n1 | – | human patients, plasma | oral, 350 mg, high-dose arm, cycle 2 day 1 | – | median half-life | 22.8 h
CCc1cc(C(=O)NC)c2nccc(N3CCc4c(cc(Cn5ccnc5)cc4-c4cn(C)nc4C(F)(F)F)C3=O)c2c1 | – | Sprague Dawley rats | oral, 100 mg/kg once daily, 7 days | – | haematocrit | 44.4 ± 0.68%
Cn1c(COc2cccc3cccnc23)nnc1SCC(N)=O | – | octanol/buffer | pH 11, known kinase inactives set | – | logP | 0.6
CC(C)C[C@H](NC(=O)[C@@H](Cc1c[nH]c2ccccc12)NC(=O)[C@H](Cc1ccc(O)cc1)NC(=O)[C@H](CO)NC(=O)[C@H](Cc1c[nH]c2ccccc12)NC(=O)[C@H](Cc1c[nH]cn1)NC(=O)[C@@H]1CCC(=O)N1)C(=O)N[C@@H](CCCNC(=N)N)C(=O)N1CCC[C@H]1C(=O)NCC(N)=O | – | Chinese CPP boys | intramuscular, 22.5 mg, 12 months, day 1, month 6 | – | patients, drug-related Dermatitis TEAEs | 25%
Cc1cc(NC2CCN(C(=O)OC3CCN(C(=O)/C=C/CN(C)C)C3)CC2)n2ncc(C(C)C)c2n1 (stereo not drawn) | – | patients with advanced solid tumours | dose not given, QD arm, any grade | – | patients with Arthralgia | 12%
COc1cc(Nc2ncc3c(n2)-c2ccc(Cl)cc2C(c2c(F)cccc2OC)=NC3)ccc1C(=O)O | item: Hyponatremia, grade 1 | cancer patients, phase 1/2 | oral, dose not given, added: pembrolizumab | – | patients with adverse event | 46%
O=C(O)[C@H]1O[C@@H](Oc2cc(-c3oc4cc(O)cc(O)c4c(=O)c3O)ccc2O)[C@H](O)[C@@H](O)[C@@H]1O | – | human, cerebrospinal fluid | concentration not given, mean | – | CSF concentration | 4.5 nM
CCC(=O)N(CCC(c1ccc2c(c1)OCO2)c1ccccc1OC)Cc1ccccc1 (stereo not drawn) | – | mouse, blood | i.p., 60 mg/kg twice daily, 2 weeks | – | total CO2 | 14 mEq/L
NC1(C(=O)N[C@@H](CCO)c2ccc(Cl)cc2)CCN(c2nc[nH]c3nccc2-3)CC1 | – | metastatic CRPC patients | dose not given, grade 3 to 4, treatment-related, all doses, added: enzalutamide 160 mg daily | – | incidence of Blindness | 0%

Some of these lines once more:
SMILES | test | system | conditions | how to read | quantity | result
Cc1cc(NC2CCN(C(=O)OC3CCN(C(=O)/C=C/CN(C)C)C3)CC2)n2ncc(C(C)C)c2n1 (stereo not drawn) | – | patients with advanced solid tumours | dose not given, QD arm, any grade | – | patients with Arthralgia | 12%
COc1cc(Nc2ncc3c(n2)-c2ccc(Cl)cc2C(c2c(F)cccc2OC)=NC3)ccc1C(=O)O | item: Hyponatremia, grade 1 | cancer patients, phase 1/2 | oral, dose not given, added: pembrolizumab | – | patients with adverse event | 46%
